# Measured values collected from several papers.
# Numbered parts are unrelated; each lists some results of a single study.

# Block 1 — technique: protein binding microarray; molecule type: double-stranded DNA, one strand shown; medium: in vitro; tested at: not given; baseline: not given; reading: higher = stronger binding
# Target: Histone acetyltransferase KAT6A, winged helix 2, GST fusion (KAT6A, Homo sapiens, UniProt Q92794, residues 85-181)
# Notes: 8-mer, flanks averaged, mean of 2 arrays, mostly near background
# Residues (chain): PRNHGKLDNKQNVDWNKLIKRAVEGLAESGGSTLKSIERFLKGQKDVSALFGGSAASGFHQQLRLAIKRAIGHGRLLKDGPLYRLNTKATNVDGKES
Oligonucleotide,E-score
TCGCCGAA,5e-05
TAGCATCA,0.0879
ACGGCGGA,0.0645
CTCCTAGA,-0.191
GCCCAACC,0.037
ACTAGTAA,-0.078
GGCGTTTA,-0.186
GACATCTA,0.072
AAATATCC,0.205
AGGCTGGG,0.0998
GAAGTTGA,-0.123
AGGCGAAA,0.00938
ATCCTCCA,-0.0396
GAAACCAC,-0.0336
AGCGGGAC,0.265
GAGTGTGC,0.0523
AATTGTCT,-0.0481
AATAAGTC,-0.238
CAACTATA,-0.0916
AAATTTCC,0.0056
AAGGCCCT,0.0885
AGCCGAGC,0.197
AGGTTGTC,-0.141
CCGTTTAG,0.0747
AATTTATC,0.192

# Block 2 — technique: protein-binding microarray; molecule type: double-stranded DNA, one strand shown; medium: in vitro; tested at: 940 nM top; notes: 60-bp whole probe; added: salmon DNA 0.4 mg/ml; baseline: random background probes; reading: higher = stronger binding; constant ends, left off below: GCCTAGCAC … GTCTTGATTCGCTTGACGCTGCTG
# Target: Interferon regulatory factor 5, full length, phosphomimetic (IRF5, Homo sapiens, UniProt Q13568-2, residues 1-514, S451D/S453D/S456D/S462D)
Oligonucleotide,fitted relative affinity [z-score]
TTAGATCTCAGTATGGATTAGTGCTAG,0.13
GACGAACTGAGACTTGAGACGTGCTAG,-0.415
TTAGGGATCGACTATCGGTTAGTGCTA,0.37
TATTCCCCATCACTCACTCTGTGCTAG,1.37
GTCGATTTCGGGACTGGAGACGTGCTA,0.578
GTCGGTATCGACTTTCGGGACGTGCTA,5.62
GACGGTTTCCGGTATCGGGACGTGCTA,2.77
GACGGTCTCCTTTTCCTGACGTGCTAG,0.683
CTTTATTTAAGCTCCTATCTTGTGCTA,0.833
GACTAACTGGGGTTTCGAGACGTGCTA,2.28
TTAGGTTTCGGGTATCGTTTAGTGCTA,11.6
TCAGCTTTGCAGATAAAACTGTGCTAG,0.213
TCATTTTTTTTATTTATACTGTGCTAG,1.6
TCTCCTTTCCAAATACCCTCGTGCTAG,2.18
GACCGTCTCGGTATCGGGACGTGCTAG,4.56
CCACACACCATTCTCGGGACGTGCTAG,1.3
TTAGGTTTCCTTATCCTATAGTGCTAG,1.81
TCATCCATCACTTTCCAACTGTGCTAG,1.3
TCACTTTTTGCTTTCTTACTGTGCTAG,2.04
TTAGATTTCGGGTATCGAATAGTGCTA,1.66
CTCCCCCTCCCCCTCAGATCGTGCTAG,-0.0582
TTGTTTTTCATCATTGCCTAGTGCTAG,1.39
ACAGGTTCTCTTTTATTTTTGTGCTAG,1.68
TTGGATATCAGACTGGATTAGTGCTAG,-0.702
GACGGTTCCCTTTACCTGACGTGCTAG,0.503

# Block 3 — technique: RNA Bind-n-Seq; molecule type: RNA; medium: in vitro; tested at: 365 nM; baseline: no-protein control; reading: higher = stronger binding
# Target: RNA binding protein fox-1 homolog 2, RRM domain, GST-SBP tag (RBFOX2, Homo sapiens, UniProt O43251-10, residues 100-194)
# Notes: natural RNA segment, single round, ends assumed
# Constant ends, left off below: GGGAGUUCUACAGUCCGACGAUC … UGGAAUUCUCGGGUGCCAA
# Residues (chain): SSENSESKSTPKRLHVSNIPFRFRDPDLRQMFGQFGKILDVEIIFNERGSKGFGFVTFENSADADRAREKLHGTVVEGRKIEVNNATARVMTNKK
Oligonucleotide,RBNS enrichment (R)
GUUAUGAAUGAAAAUCAAACGAAGAUCCAAGCUGUACUGAUGUCAGAGGGAUGGUUCCAUUUUGACAGUGACUUUGGUUUUUUCCUCCGUAUAGAUUCAUCGUGUAGUUC,0.341
UUCAGAGGGCCACUGGGUUAGGACCUGAGGACCUCACUUGGCCCUGCAAGGCCCGCUUUUCAGGGACCAGUCCACCACCAUCUCCUCCACGUUGAGUGAAGCUCAUCCCA,0.219
UGAUUUUGUUUUAGCAUUAAACUGUUCAAGUUUUUGUACGUAGAUAUCUAGAUACUGCAGUCAGGUUUGGAAGCUGCCGUACACUCACUGUCUAAAACCCUUGAGGGGCU,1.08
GGGACCUGCUUGUGAACAUGUGUAUAGAGUGCCAGCUCAGAUAAUAAGCUUACCAGUGACCUUGUUCACUUUGAGUCAGGGAACGUAUUUGUAAAAUUAACACUAAAGAU,0.513
UCAGUGACUGCCUGUACCUGUGCAACCCUCGCUUGCUCCUUGGAGAACCUGACAGGACGCUGAAGAUGUGCGGGCAGUUGUGCACCGUCAGUGAGGGAGAGAGACCCCGA,0.502
CGUCUUUUCAUUCCAGUCCAGUUCAGGCUGCCGUGCACUUUGUCGGAUAUAAAAUAAACCACGGGCCCGCCAUGGCGUUAGCCCUUCCUUUUGCAGUUGCGUCUGGGAAG,0.239
CAUACCCUCAUGGCUUCACAGUCAAGGUCAGCAGGAAGCUCAUUGGUCACCUUCAUGGUGACCUCUCCAUUAUUCUGUCUCACUUGGAACCAUUUUCAGUUUAUUUACUA,0.277
GGUAUCCCCCUGCCCCCUCAGUGUCCUUCCCUGUUCCCUCCCACUACUCCCCCAAGUUGGGGAAAGGAGGGGGAACCUACGAGAAAAACAGCUCAGGUUUUAUCACCGAC,0.331
UAUCUUUUUUCUCACUUAUUUUUGCGGUGAAAGUCGAGGGCAUGCAAGAGUUUCUCUUCCAGAAGCCAAGAGGAGAACAAAGGUCCUAAUGCUGUACUAUUCCACCCUUU,2.16
CUCCCUAAUUCUUUUGUUUCUUUUGCAGAAUUAAGAAUAUUUCCUUGUUUAUUAGAUACAUCACUGCUUUAUGAAGCAAGGAAGAUAUACAUGAAAAAAUUUAAAUACAU,1.3
GGGCCUAUCCUUGCCUGUAGUUCUCAGUCACUGGAUGCACAAAAUCACUGUGUAACAUUGGCUCACUUGGUGAGCAUAGGGUUGACUGAUAAAAUGUUUAAUUCCCUUGC,0.368
CUUGCCCUGAAAUCUCAAUGUCUAUUCAGUGAUAGUACAAGCACGUAGAUACCACUUAGUAUACUAUUGUUUCUAUUAAAAAAAAAAAAAAAAAGGUCUGUUCCUGCUAC,0.918

# Block 4 — target: UBE2S UBC core domain (UniProt Q16763); technique: yeast two-hybrid; medium: yeast; notes: mostly zero background; baseline: not given; reading: higher = stronger interaction
# B1: RNF43 RING domain (UniProt Q68DV7); chain SGSSCSSAPVCAICLEEFSEGQELRVISCLHEFHRNCVDPWLHQHRTCPLCMFNITEGDSFS
# B2: NSMCE1 RING domain (UniProt Q8WV22); chain RETYPDAVKICNICHSLLIQGQSCETCGIRMHLPCVAKYFQSNAEPRCPHCNDYWPHEIPKV
# B3: TRIM10 RING domain (UniProt Q9UDY6); chain SVTSLADEVNCPICQGTLREPVTIDCGHNFCRACLTRYCEIPGPDLEESPTCPLCKEPFRPGSFRP
# B4: UBE4A RING domain (UniProt Q14139); chain LQQQEEETYADACDEFLDPIMSTLMCDPVVLPSSRVTVDRSTIARHLLSDQTDPFNRSPLTMDQIRPNTELKEKIQRWLAERKQQKEQLE
# B5: RNF149 RING domain (UniProt Q8NC42); chain EKGIDVDAENCAVCIENFKVKDIIRILPCKHIFHRICIDPWLLDHRTCPMCKLDVIKALGYW
# B6: ANKIB1 RING domain (UniProt Q9P2G1); chain LSPGDLDTSLCDICMCSISVFEDPVDMPCGHDFCRGCWESFLNLKIQEGEAHNIFCPAYDCFQLVPVDIIE
# B7: TRIM3 RING domain (UniProt O75382); chain VQPMDKQFLVCSICLDRYQCPKVLPCLHTFCERCLQNYIPAQSLTLSCPVCRQTSILPEQGV
# B8: TRIM35 RING domain (UniProt Q9UPQ4); chain PSRSFKEELLCAVCYDPFRDAVTLRCGHNFCRGCVSRCWEVQVSPTCPVCKDRASPADLRT
# B9: RNF14 RING domain (UniProt Q9UBS8); chain IKCFNSKLFLCSICFCEKLGSECMYFLECRHVYCKACLKDYFEIQIRDGQVQCLNCPEPKCPSVATPGQVK
# Residues (chain): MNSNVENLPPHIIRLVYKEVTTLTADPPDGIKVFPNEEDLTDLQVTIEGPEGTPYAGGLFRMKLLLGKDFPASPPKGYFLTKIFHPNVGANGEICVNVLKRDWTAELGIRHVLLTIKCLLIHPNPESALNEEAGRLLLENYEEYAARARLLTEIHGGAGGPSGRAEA
Sequence,lacZ reporter activity
B1 (RNF43 RING domain),0
B2 (NSMCE1 RING domain),0
LKQVSIRENCCSLCCDEVADTQLKPCGHSDLCMDCALQLETCPLCRKEIVSRIRQI (RSPRY1 RING domain (UniProt Q96DX4)),0
B3 (TRIM10 RING domain),0
SYEDKSNDFVCPICFDMIEEAYMTKCGHSFCYKCIHQSLEDNNRCPKCNYVVDNIDHLY (COP1 RING domain (UniProt Q8NHY2)),0
B4 (UBE4A RING domain),0
MANWVFCNRCFQPPHRTSCFSLTNCGHVYCDACLGKGKKNECLICKAPCRTVLLSK (RNF212 RING domain (UniProt Q495C1)),0
QLQDEEDDSLCRICMDAVIDCVLLECGHMVTCTKCGKRMSECPICRQYVVRAVHVF (RNF34 RING domain (UniProt Q969K3)),0
B5 (RNF149 RING domain),0
FLKKLEQSFMCVCCQELVYQPVTTECFHNVCKDCLQRSFKAQVFSCPACRHDLGQNYIMI (UHRF2 RING domain (UniProt Q96PU4)),0
B6 (ANKIB1 RING domain),0
B7 (TRIM3 RING domain),0
KRQCSDVDDICSICQAEFQKPILLICQHIFCEECMTLWFNREKTCPLCRTVISDHINKW (RNFT1 RING domain (UniProt Q5M7Z0)),0
B8 (TRIM35 RING domain),0
KIKDLNEHIVCCLCAGYFVDATTITECLHTFCKSCIVKYLQTSKYCPMCNIKIHETQPLL (PCGF1 RING domain (UniProt Q9BSM1)),0
B9 (RNF14 RING domain),0

# Excerpt of the above (block 4):
Sequence,lacZ reporter activity
B8 (TRIM35 RING domain),0
B1 (RNF43 RING domain),0
B6 (ANKIB1 RING domain),0
KIKDLNEHIVCCLCAGYFVDATTITECLHTFCKSCIVKYLQTSKYCPMCNIKIHETQPLL (PCGF1 RING domain (UniProt Q9BSM1)),0
SYEDKSNDFVCPICFDMIEEAYMTKCGHSFCYKCIHQSLEDNNRCPKCNYVVDNIDHLY (COP1 RING domain (UniProt Q8NHY2)),0
